Published values gathered from unrelated publications.
A part holds a random share of what one study measured. Changes are numbered by the printed parent chain.

Series 1
Target: Histone acetyltransferase KAT6A, winged helix 2, GST fusion (KAT6A, Homo sapiens, UniProt Q92794, residues 85-181)
Technique: protein binding microarray
Form: double-stranded DNA, one strand shown
Matrix: in vitro
Tested at: not given
Notes: 8-mer, flanks averaged, mean of 2 arrays, mostly near background
Relative to: not given
Direction: higher = stronger binding
Target sequence (chain): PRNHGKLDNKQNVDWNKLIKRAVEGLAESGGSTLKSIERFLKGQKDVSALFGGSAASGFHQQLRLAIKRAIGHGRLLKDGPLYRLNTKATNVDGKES
Strand | E-score
GGGCTACC | -0.0499
GAAACCGC | 0.133
CGCATGTA | -0.123
ACGCGAGG | -0.0246
ATTCTCCA | 0.129
AGTTCCTG | -0.0787
GCTAGGCC | 0.1
AGGCACCA | 0.0192
AATGAAGT | -0.0535
GCCATCCC | 0.0703
ACCTGAAT | -0.00277
ATGTAACA | 0.0176
CACCCCTG | -0.11
GAGACGTA | -0.179
GAGTGTCC | 0.0575
GCTCGGAA | 0.00709
GCGACGAC | -0.0877
AGTTGTGA | -0.0619
CCGGAGCA | 0.19
CAGCACGG | 0.0957
AACCGGAG | 0.156
ACGTTAGT | -0.131

Series 2
Target: RING finger protein unkempt homolog, zinc fingers 1-6, SBP tag (UNK, Homo sapiens, UniProt Q9C0B0, residues 30-357)
Chain of UniProt Q9C0B0 (30-357, looked up): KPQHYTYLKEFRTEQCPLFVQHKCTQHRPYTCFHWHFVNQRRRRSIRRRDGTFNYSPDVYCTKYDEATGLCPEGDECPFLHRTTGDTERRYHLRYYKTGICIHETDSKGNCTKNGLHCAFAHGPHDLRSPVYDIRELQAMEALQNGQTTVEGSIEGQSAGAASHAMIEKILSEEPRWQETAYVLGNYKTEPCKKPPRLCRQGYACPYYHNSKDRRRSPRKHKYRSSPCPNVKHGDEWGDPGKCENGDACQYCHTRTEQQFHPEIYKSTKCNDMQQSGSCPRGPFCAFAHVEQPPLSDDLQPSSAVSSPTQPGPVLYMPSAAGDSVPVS
Technique: RNA Bind-n-Seq
Form: RNA
Matrix: in vitro
Tested at: 100 nM
Notes: RNA with constant flanks, vertebrate orthologous sites, ends assumed
Relative to: input RNA pool
Direction: higher = stronger binding
Constant ends, left off below: GGGAGUUCUACAGUCCGACGAUC … CAACAGAGGAUUGAGCAUCA
Strand | bound/input enrichment
AGAAAAUUUUAACCAAGAAUCUGAAGGUAGAAAUACAGGACCAUGGUUAUCUUCCUCACUUAGAAAUAGAUGCACACCCUUGUUCUCUAGAAGGAGGCGUGAGGGACGAGAUGAAUCUUC | 0.771 ratio
UACUGUAUGUAGAGAAAACAUUUUCAUUGACCCCGUUGUGAAAUUCCCUAGCAAUUUAUUUAGAAUCUUCAUUUUUCUCAUUCAAGCUCAUUGUAUUAGUUAUUUUUAGCCCAUAAUUAA | 5.63 ratio
GAGAUUCCCCAUUGUCACUGAGAACCACCAAAUCUGACUUUUACAUUUGGUCUCAGAAUUUAGGUUCCUGCCCUGUUGGUUUUUUUUUUUUUUUUUAAAACAGUUUUCGAAAGUUCUUAA | 0.804 ratio
AAUUACACUAAUACUGAAGUUAAAAUGAAAAGGAUAUCCAAGGUGAUGAUAAAGUGUGUGUUGGUAGUUACUAAAAAAAAACCUUAGCUGUUAUUGCCUUGUAUUUCUAUCCCUUGUUUC | 0.475 ratio
UGUCUGCCUCAUUCUAAAAUUUACACAGUAGACCAUUUGUCACUCAUGCUGUCCCACGAAUAGUUUUUGUUUACGAUUUAUGACAGGUUUAUGUUACUUCUAUUUGGAUUUCUAUAUUUC | 0.957 ratio
GGGAAAUAUUGAAUAGUAUUCAGCAUUUUUGUCUUCCUUUAUUUUUUCUCUCUGAAUACCUGGUGUACUUUUUAAAAUUUCAGACUUCACUGCUAUCUGAAUUGACUAUUUCAAUUUUCA | 0.422 ratio
AAAAACCCCGAUUUUAGAUGUGAUAUCUAGGCUUUCAUUCCAGUUUGUUUUUGUCUUGUUUAGAUACCAAUCUUUUAAAUUCUUGCAUUUUAGUAAGAAAGCUACCUUUUUAUGGAUGUU | 0.627 ratio
CACAUCUGGUGAUAUUUGGCCUGGCCUUUCAGCCUAUGAUAACAGUCCCAGAUCUCCUCAUAGUCCUUCACCGAUCGCUACACCACCUAGUCAGAGUUCGUCUUGCUCUGAUGCCCCCAU | 0.757 ratio
UAGUGCUUAAGCCAAGAACAGUUCUAAAAUGCUAUUUAUUUGUGUCUGUAAGUUUGUACAAUAAUACUAUCAACCUCACUGUUCUUGAAUUUUGAUUUUUUUGGUGGGGAGGAAUAAGUU | 1.42 ratio
AGAACCUAAACUUAUAGCAAAAGAGCCAAGCAGUAGUUUUUUUGUAAAUGUAAAAAUAAUUAGAUCCAGACUUUGUUUCCUUCAAUUUUAAAAAUAAAAAAUACCUCAGUGCUAUGUUUU | 0.873 ratio
UCCUUCUAUUCAGGGUUGGGCUCAUCUGUAAAAGAUGUAAUAUUUGCAACAACUGUAUUAUAUCUAGUUAAGUUGAGUUGAAUAUUUUUUUAUUAGCCUGUAAAUAAAGAUGGCAUCUUU | 0.27 ratio

Series 3
Target: CCNE1, cyclin fold, Cln2 fusion (human)
Technique: yeast growth competition, sequencing
Matrix: yeast
Notes: strong parent motif
Relative to: not given
Direction: higher = stronger binding
Parent: GMNC docking peptide (human); KNAKRNLSSEFAN
Change | normalised enrichment score
S8H | 0.664
N2C | 1.21
S9I | 1.41
S8N | 2.05
S8Q | 1.3
R5G | -0.144
N6S | 0.367
E10R | 0.976
A12Q | 1.1
K4R | 1.97
N6R | 0.817
S8F | 2.51
N6F | 0.153
A3R | -0.119
S9L | 1.88
K4V | 2.34

Series 4
Target: Sal-like protein 4, full length isoform A (SALL4, Homo sapiens, UniProt Q9UJQ4, residues 1-1053)
Chain of UniProt Q9UJQ4 (whole entry, looked up): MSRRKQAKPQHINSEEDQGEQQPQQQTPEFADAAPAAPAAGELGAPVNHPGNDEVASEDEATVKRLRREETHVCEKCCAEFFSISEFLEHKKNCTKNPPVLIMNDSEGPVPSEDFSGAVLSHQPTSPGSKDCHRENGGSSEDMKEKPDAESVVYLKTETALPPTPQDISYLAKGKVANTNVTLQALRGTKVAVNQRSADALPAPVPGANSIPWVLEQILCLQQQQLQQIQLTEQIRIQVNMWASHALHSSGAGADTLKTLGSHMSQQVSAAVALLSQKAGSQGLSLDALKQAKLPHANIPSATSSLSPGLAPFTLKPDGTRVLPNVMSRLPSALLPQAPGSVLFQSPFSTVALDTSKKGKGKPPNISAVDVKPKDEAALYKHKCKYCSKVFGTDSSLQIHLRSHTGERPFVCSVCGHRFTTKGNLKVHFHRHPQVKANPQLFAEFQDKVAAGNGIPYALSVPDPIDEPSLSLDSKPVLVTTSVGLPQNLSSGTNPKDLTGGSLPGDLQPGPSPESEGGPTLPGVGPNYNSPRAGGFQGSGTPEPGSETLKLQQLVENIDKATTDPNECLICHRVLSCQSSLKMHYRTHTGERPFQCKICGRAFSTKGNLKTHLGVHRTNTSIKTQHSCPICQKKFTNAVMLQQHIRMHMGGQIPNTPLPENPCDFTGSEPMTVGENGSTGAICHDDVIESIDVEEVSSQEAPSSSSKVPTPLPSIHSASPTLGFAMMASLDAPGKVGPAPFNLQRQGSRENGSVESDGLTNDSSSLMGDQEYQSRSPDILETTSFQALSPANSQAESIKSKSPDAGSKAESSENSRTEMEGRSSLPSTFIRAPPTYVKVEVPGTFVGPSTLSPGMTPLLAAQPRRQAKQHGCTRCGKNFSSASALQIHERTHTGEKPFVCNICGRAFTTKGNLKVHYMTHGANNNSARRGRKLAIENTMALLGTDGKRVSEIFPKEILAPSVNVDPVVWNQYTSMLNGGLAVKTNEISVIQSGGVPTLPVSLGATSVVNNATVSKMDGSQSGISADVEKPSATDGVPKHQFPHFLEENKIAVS
Technique: universal PBM
Form: double-stranded DNA, one strand shown
Matrix: in vitro
Tested at: 600 nM
Notes: 8-mer, flanks averaged, mean of replicates
Direction: higher = stronger binding
Strand | E-score
AATGTAAG | 0.284
GGCACGAC | -0.128
CATATTAG | 0.283
ACTGAAAT | 0.26
ACCTTAAT | 0.25
AGCTCTCG | -0.149
ACGCTATA | 0.184
GAGAAAAC | -0.0923
AGGAGCCG | -0.293
AGCCACCT | -0.237
GCCGAGGC | -0.281
AGTCTAAA | 0.157
CAGGAGCC | -0.356
CATCATAA | 0.313
CCCCAAGG | -0.284
GATGTCAC | -0.0663
TCAGGCAA | -0.0645
CGCGACGA | -0.138
CAACCACC | -0.206
ATTATTTG | 0.369
ATTCGGGG | -0.127
CCTGAGGC | -0.395
CGACGATC | -0.0728
AAGAAGCG | -0.127
AACAGTAA | 0.194

Series 5
Target: RNA binding protein fox-1 homolog 2, RRM domain, GST-SBP tag (RBFOX2, Homo sapiens, UniProt O43251-10, residues 100-194)
Technique: RNA Bind-n-Seq
Form: RNA
Matrix: in vitro
Tested at: 365 nM
Notes: natural RNA segment, single round, ends assumed
Relative to: no-protein control
Direction: higher = stronger binding
Constant ends, left off below: GGGAGUUCUACAGUCCGACGAUC … UGGAAUUCUCGGGUGCCAA
Residues (chain): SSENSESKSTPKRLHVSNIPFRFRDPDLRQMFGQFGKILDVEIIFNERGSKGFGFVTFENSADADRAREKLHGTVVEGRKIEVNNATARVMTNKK
Strand | RBNS enrichment (R)
CAGAAAUGAGACAUUCUGACAAUAAUGAAGUGCUUCAUGGUAUCUCAACAGUGUACUUUCUUGUAAUAUUUUCCAUCUUUUUAACCUGAGCAUGUUUGUUUUGUCUGCUU | 8.14
AUUUAGGUGUGGGCUGAUUGGACUCCAACAUCUUUUGUACUCUUUUCAUGCUUUAUGUUAUGUAGAAUUUGAGUUCAUGCUGAAUGCAUUCCAGCCAGUAAUUUAUAGCC | 0.731
UGUAUUUCCCCCUUUCCACUGGGCCCUUCCAACACAAUGAAUGAAGGAAAUAUCAUUUAUUUAAGCAGCCUAUCAGUGAUUGCCAUUAGACUGUUGAAUACUGUUACUUU | 0.384
ACCCAGAUUGUGUGCCCUGUGCCAGUGGGGGGGUUGAGGGUGGGACGGUGUCCGUGUUGUUGCUUUCCCACCCUGCAGCGCACUGGACUGAAGAGCUUCCCUCUUCCUAC | 0.651
CACCUUCAAAGUAACUCUUAGAAGAUGUGCUUGACUUGAUAGCUUACUUAAAUACACACUGCGAAGAGUGAAAAGCUUGGAAAAGCAGAGUUGGGAGGACCCCGAGGAAA | 0.347
CUGAGCUCAGAUCCAGCUUGCAACUAAUCCUUCUAUCAUCUAACAUGCCCUACUUGGAAAGAUCUAAGAUCUGAAUCUUAUCCUUUGCCAUCUUCUGUUACCAUAUGGUG | 0.573
AAGGCGCACAGAGCUGCUCCUGCCUAUGUGAUCUUUAAGUAGACCAGGAGCCAGGAAACCACUUUAAGAUGUAAGCCAUUGUGUGUCUCUAGUUUCUUAAGCAGACCAAG | 0.341
GUACUAUCUAUAUAUAUAUCUCAAGCAUCUUUCAGGUCUUUGUGUGUGGCUUUCUUAAAGCCCUGUUGUAAAAAAUUACUAUGUGGAUGGCAGUCUCUCACAUCACAGAU | 0.628
AUUACAAGCAUGAGCCACCGCACCCGGCCUCACAGUGACAGAUUCUGAGAAACAGCAUGCAAAACAUUUGAACCAUUUUCUACAUCUCCCAUUGUUGCAUAGAGAGUGUG | 22.5
GAAAAACAGUAACUGCUGUUUGUUACAGCCUGAAAUCCAGGACGACCGCAUUUUCUCUUGGUUUCUAAAAGGAAGGGAAUCUUCCCGAUUUUUCUAAGAUGUUGAGUAUU | 3
CCUGUGCCAGUGCUUUCCUAAGCAGUAUACCUUUAAUCAGAACUCAUUCCCAGAACCUGGAUGCUAUUACACAUGCUUUUAAGAAACGUCAAUGUAUAUCCUUUUAUAAC | 0.857
GUCAGUAUUUUUGUAAGGUUCCAUUUUGUAAAGAGAAUAAUAUUCAAAGACUUUUGUAGCAUACAAAGUGAAAACUUGUAUCUGCGAAACUAUACUUGUAUUAAAUGUGC | 0.579
